Experimental data gathered from unrelated publications.
Numbered parts are unrelated; each lists some results of a single study.

Block 1
Target: Interferon regulatory factor 5, full length, phosphomimetic (IRF5, Homo sapiens, UniProt Q13568-2, residues 1-514, S451D/S453D/S456D/S462D)
Technique: protein-binding microarray
Form: double-stranded DNA, one strand shown
Matrix: in vitro
Concentration: 940 nM top
Setting: 60-bp whole probe
Together with: salmon DNA 0.4 mg/ml
Reference: random background probes
Reading: higher = stronger binding
For `GCCTAGCACGACGGTATCTGGACTGGGGACGTGCTAGTCTTGATTCGCTTGACGCTGCTG`, “fitted relative affinity” read 0.488 z-score.
For `GCCTAGCACTTAGGTATCTACTTTCGGTTAGTGCTAGTCTTGATTCGCTTGACGCTGCTG`, “fitted relative affinity” read 4.48 z-score.
`GCCTAGCACGACGGTATTGGGTTTCGGGACGTGCTAGTCTTGATTCGCTTGACGCTGCTG` — result for “fitted relative affinity”: 3.2 z-score.
`GCCTAGCACTTAGATCTCAGTATCGATTAGTGCTAGGTCTTGATTCGCTTGACGCTGCTG`: “fitted relative affinity” 5.04 z-score.

Block 2
Target: Prothrombin, mature alpha-thrombin (F2, Homo sapiens, UniProt P00734)
Technique: aptamer microarray, sandwich
Form: DNA with 2'F-ANA
Matrix: in vitro
Concentration: 200 nM
Setting: whole 15-mer aptamer, many near background
Together with: Cy3 exosite-II aptamer, 400 nM
Reading: higher = stronger binding
`GGTTGGTGTGGTTGG (2'F-ANA at 3 5 7 8 10 11 15)`: “mean fluorescence intensity” 65.8 a.u.
For `GGTTGGTGTGGTTGG (2'F-ANA at 2 3 5 8 12 13 15)`, “mean fluorescence intensity” read 195 a.u.
For `GGTTGGTGTGGTTGG (2'F-ANA at 2 3 5 7 8 11 12 14)`, “mean fluorescence intensity” read 65.5 a.u.
Under “mean fluorescence intensity”, `GGTTGGTGTGGTTGG (2'F-ANA at 2 8 11 14)` is recorded as 153 a.u.

Block 3
Target: TAR DNA-binding protein 43, full length, His tag (TARDBP, Homo sapiens, UniProt Q13148, residues 1-414)
Technique: RNA Bind-n-Seq
Form: RNA
Matrix: in vitro
Concentration: 20 nM
Setting: 6-mer, flanks averaged, single round
Together with: 150 mM KCl
Reference: input library
Reading: higher = stronger binding
For `GUUUUC`, “6-mer enrichment (R)” read 0.615.
Under “6-mer enrichment (R)”, `CUAACG` is recorded as 0.668.
`CCCCCC` — result for “6-mer enrichment (R)”: 0.751.
For `GUGAGU`, “6-mer enrichment (R)” read 1.56.
`ACUCCC` — result for “6-mer enrichment (R)”: 0.686.

Further values, each from its own experiment
With `PhoQ, residues 284 288 289 292 302 303 SNSSNI` the fold induction was 0.64 (PhoP, residues 12 14 15 18 19 NIMAP (Escherichia coli, UniProt P23836); Sort-seq, refers to: YFP reporter; E. coli; PhoQ-PhoP variant library, together with: 10 µM Mg2+; reference: high Mg2+ state, higher = stronger signaling).

Excerpt of the above (block 1):
For `GCCTAGCACGACGGTATCTGGACTGGGGACGTGCTAGTCTTGATTCGCTTGACGCTGCTG`, “fitted relative affinity” read 0.488 z-score.
